Measured values gathered from unrelated publications.
Each line is one published result; not all experiments were run side by side. “And” joins repeats or separate records; there may be more than shown. ± gives the spread as reported.

| SMILES | organism | assay | test system | setting | scale | quantity | result |
| --- | --- | --- | --- | --- | --- | --- | --- |
| CCC1(CC)CC(=O)N(C2c3cc(C(=O)NC4c5ccccc5CC4O)ccc3OC2(C)COC)C(=N)N1 (stereo not shown) | Plasmodium falciparum | merozoite egress | PEXEL-Nluc line |  |  | IC50 | ~0.0017 µM |
| O=C1Nc2ccccc2C1(c1c[nH]c2ccccc12)c1c[nH]c2ccccc12 | Clostridium sporogenes | microbial growth, absorbance |  |  |  | IC50 | > 50 µM |
| O=C(c1ccc(Br)cc1)N1CCN(c2ccc(F)cc2)CC1 | Saccharomyces cerevisiae | cell growth | wild type |  |  | IC50 | 6.2 ± 2.1 µM |
| Oc1cccc2c1[nH]c1c(C3=CC4(O)CCC=CCCCCN5CCC3C3(CC6C=CCCCCN6C43)C5)nccc12 (single isomer, unassigned; (+)) | Cryptococcus neoformans | microbial growth | ATCC90113 |  |  | IC50 | 2.67 µg/mL |
| COc1ccccc1N1CCN(C(=O)c2ccc(Cl)c([N+](=O)[O-])c2)CC1 | Saccharomyces cerevisiae | growth | sec14∆/SEC14 diploid |  |  | IC50 | 76.1 ± 5.3 µM |
| Cc1cccc(Nc2n[nH]c3nc(-c4ccc(F)cc4F)nc(N)c23)c1 | rhinovirus B5 | viral cytopathic effect | HeLa |  |  | IC50 | 26.8 µM |
| COc1ccc(C(=O)OC2CCN(C)CC2)cc1 | Trypanosoma cruzi | reporter mRNA translation, inhibitor, measured: Renilla luciferase mRNA | cell-free extract | concentration not given, test 2 | reference: positive over negative control | translation activity | 98.3% |
| O=C(c1cccc([N+](=O)[O-])c1)N1CCN(c2ccc(F)cc2)CC1 | Saccharomyces cerevisiae | cell growth | wild type |  |  | IC50 | > 200 µM |
| Nc1nc(-c2ccc(Cl)cc2)nc2[nH]nc(Nc3ccc(F)cc3)c12 | rhinovirus B5 | viral cytopathic effect | HeLa |  |  | IC50 | 0.52 µM |
| COc1cc2nc(N(CCCN(C)C)C(=O)c3ccc(S(=O)(=O)N4CCc5ccccc54)cc3)sc2cc1OC.Cl | Trypanosoma cruzi | reporter mRNA translation, inhibitor, measured: Renilla luciferase mRNA | cell-free extract | concentration not given | reference: positive over negative control | translation activity | 79.1% and 117% |
| O=Cc1c[nH]c2ccccc12 | Clostridium sporogenes | microbial growth, absorbance |  |  |  | IC50 | > 50 µM |
| CN(C)c1nc(-c2ccccc2)nc2[nH]nc(Nc3ccc(F)cc3)c12 | rhinovirus B5 | viral cytopathic effect | HeLa |  |  | IC50 | 10.1 µM |
| O=C(c1ccc(F)cc1)N1CCN(c2ccc(F)cc2)CC1 | Saccharomyces cerevisiae | cell growth | wild type |  |  | IC50 | > 200 µM |
| CCc1ccc(-c2nc(N)c3c(Nc4ccccc4)n[nH]c3n2)cc1 | rhinovirus B5 | viral cytopathic effect | HeLa |  |  | IC50 | 0.57 µM |
| CC(=O)C(C)(c1c[nH]c2ccccc12)c1c[nH]c2ccccc12 | Clostridium sporogenes | microbial growth, absorbance |  |  |  | IC50 | > 50 µM |
| CCCCC(CC)COC(=O)CC(C(=O)OCC(CC)CCCC)S(=O)(=O)O.COC(=O)Nc1nc2cc(C(=O)c3ccc(F)cc3)ccc2[nH]1 (stereo not shown) | Cryptococcus neoformans | EUCAST broth microdilution | clinical isolate | 72 h, 37 °C, RPMI with 2% glucose |  | IC50 | 0.312 µM |
| Nc1nc(-c2ccccc2)nc2[nH]nc(Nc3c(F)cc(F)cc3F)c12 | rhinovirus B5 | viral cytopathic effect | HeLa |  |  | IC50 | 1.47 µM |
| Cc1nc2c(NCc3cccc(S(C)(=O)=O)c3)nccn2c1-c1ccc(O)c(F)c1 | Rhinovirus A | viral replication, high-content imaging | RV-A16 |  |  | IC50 | 0.019 ± 0.008 µM |
| O=C(c1ccc(Cl)c([N+](=O)[O-])c1)N1CCN(c2ccc(F)cc2)CC1 | Saccharomyces cerevisiae | cell growth | wild type |  |  | IC50 | 3.53 ± 1.1 µM |
| CNCc1ccc2c(c1)N(C(=O)OCc1c(F)c(F)c(F)c(F)c1F)[C@H](CNC(=N)N)[C@H]2NC(=O)C(=O)Nc1ccc(Cl)c(F)c1 | Human immunodeficiency virus 1 | viral infection, Env pseudovirus | TZM-bl, C2101.c01 CRF01_AE |  |  | IC50 | 17.3 µM |
| Nc1nc(-c2ccccc2)nc2[nH]nc(Nc3ccccc3)c12 | rhinovirus B5 | viral cytopathic effect | HeLa |  |  | IC50 | 0.02 µM |
| O=C(c1ccc(I)cc1)N1CCN(c2ccc(F)cc2)CC1 | Saccharomyces cerevisiae | cell growth | wild type |  |  | IC50 | 3.75 ± 1.6 µM |

Some of these lines once more:
| SMILES | organism | assay | test system | setting | scale | quantity | result |
| --- | --- | --- | --- | --- | --- | --- | --- |
| CC(=O)C(C)(c1c[nH]c2ccccc12)c1c[nH]c2ccccc12 | Clostridium sporogenes | microbial growth, absorbance |  |  |  | IC50 | > 50 µM |
| CCCCC(CC)COC(=O)CC(C(=O)OCC(CC)CCCC)S(=O)(=O)O.COC(=O)Nc1nc2cc(C(=O)c3ccc(F)cc3)ccc2[nH]1 (stereo not shown) | Cryptococcus neoformans | EUCAST broth microdilution | clinical isolate | 72 h, 37 °C, RPMI with 2% glucose |  | IC50 | 0.312 µM |
| Nc1nc(-c2ccccc2)nc2[nH]nc(Nc3c(F)cc(F)cc3F)c12 | rhinovirus B5 | viral cytopathic effect | HeLa |  |  | IC50 | 1.47 µM |
